{"data": "Measured values from different studies", "note": "Compare with care: the assays were run in different laboratories. “And” joins repeats or separate records; there may be more than shown. ± marks the error that the study gave."}
{"SMILES": "CC(=O)N[C@H](CCNC(=O)c1cc(NC(=O)c2cc(NC(=O)c3cc(NC(=O)c4nccn4C)cn3C)cn2C)cn1C)C(=O)Nc1cn(C)c(C(=O)Nc2cc(C(=O)Nc3cc(C(=O)Nc4cc(C(=O)NCCCN(C)CCCN[14C](=O)c5cccc([14C](=O)O)c5)n(C)c4)n(C)c3)n(C)c2)n1", "system": "BALB/c male mouse", "conditions": "intraperitoneal, 15 nmol per animal, 24 h", "endpoint": "spleen concentration", "result": "0.32 mg/kg"}
{"SMILES": "CC(C)(O)c1ncc([S@](N)(=O)=NC(=O)Nc2c3c(cc4c2CCC4)CCC3)s1", "system": "healthy human volunteers, plasma", "conditions": "oral, 30 mg once daily, day 14, capsule formulation", "endpoint": "dose-normalised AUC(0-tau)", "result": "980 ng·h/mL/mg"}
{"SMILES": "Cn1c(=O)oc2ccc(-c3ccc(CC(C#N)NC(=O)C4CNCCCO4)c(F)c3)cc21 (stereo not drawn)", "system": "human", "conditions": "oral, 10 mg once daily, TEAE, multiple ascending dose", "endpoint": "WBC count decreased incidence", "result": "0%"}
{"SMILES": "CC[C@H](C)[C@@H]1NC(=O)[C@H](Cc2ccccc2)NC(=O)[C@@H](NC(=O)[C@H](CCCNC(=N)N)NC(=O)[C@H](Cc2ccccc2)NC(=O)[C@H](Cc2ccccc2)NC(=O)[C@H](CCCCN)NC(=O)[C@H](CO)NC(=O)[C@H](CC(C)C)NC(=O)[C@H](CCCNC(=N)N)NC(=O)[C@H](CCSC)NC(=O)[C@H](C)N)CCNC(=O)NCCC[C@@H](C(=O)N[C@@H](CCCNC(=N)N)C(=O)N[C@@H](CCCCN)C(=O)N[C@@H](CCCCN)C(=O)O)NC(=O)[C@H](CC(C)C)NC1=O", "test": "circular dichroism", "system": "2.5 mM DPC", "endpoint": "melting temperature", "result": "93.7 °C"}
{"SMILES": "COC[C@@H](CC(C)C)NC(=O)c1ccc(CO)c(CO)c1", "test": "LC-MS", "system": "Sprague-Dawley rat, both sexes, rat liver microsomes", "conditions": "10 µM of parent drug, 20 min, pH 7.4, together with: NADPH", "how to read": "relative to: parent drug at time zero", "endpoint": "metabolite peak area", "result": "0.1%"}
{"SMILES": "CCc1nc(C(N)=O)c(Nc2ccc(N3CCC(N4CCNCC4)CC3)c(OC)c2)nc1NC1CCOCC1", "test": "metabolite profiling", "system": "human, advanced solid tumours, feces", "conditions": "oral, 120 mg of [14C]-gilteritinib", "endpoint": "share of radioactivity", "result": "6.3 to 10.3%"}
{"SMILES": "CCCC[C@H](NC(=O)CNC(=O)CNC(=O)CN1CCN(CC(=O)O)CCN(CC(=O)O)CCN(CC(=O)O)CC1)C(=O)N[C@H]1CC(=O)NCCCC[C@@H](C(N)=O)NC(=O)[C@H](Cc2c[nH]c3ccccc23)NC(=O)[C@H](CCCNC(=N)N)NC(=O)[C@@H](Cc2ccccc2)NC(=O)[C@H](Cc2c[nH]cn2)NC1=O [copper-64 labelled]", "system": "female C57 mouse, B16/F1 melanoma", "conditions": "intravenous, 0.037 MBq, 2 h", "how to read": "relative to: tumour over liver", "endpoint": "uptake ratio", "result": 0.5}
{"SMILES": "Clc1ccc2c(c1)nc(NCC1CCCN1)n2Cc1ccccc1 (stereo not drawn)", "test": "metabolic stability", "system": "rat, liver microsomes", "conditions": "0.1 µM, 30 min, pH 7.4", "endpoint": "compound remaining", "result": "96.4%"}
{"SMILES": "CC(C)[C@H](CO)Nc1nc(Nc2ccc(C(=O)NCCNS(=O)(=O)c3cccc4c(N(C)C)cccc34)c(Cl)c2)c2ncn(C(C)C)c2n1", "system": "C57BL/6 mouse, brain cortex", "conditions": "intraperitoneal, 20 mg/kg, 4 h", "endpoint": "concentration", "result": "530 ± 170 nM"}
{"SMILES": "O=C(/C=C/c1ccccc1)Oc1ccc2c(c1)O/C(=C\\C=C\\c1ccccc1)C2=O", "system": "C57BL/6J mouse, female", "conditions": "i.p., 60 mg/kg single, 8 h", "endpoint": "peak area in plasma", "result": "807 mAU"}
{"SMILES": "O=C(Nc1ccccc1NC(=O)c1cccc(Cl)c1)c1cccc(Cl)c1", "system": "culture medium", "endpoint": "precipitation concentration", "result": "> 125 µM"}
{"SMILES": "COc1ccc(/C=C/c2ccc(-c3ccc(C)cn3)nc2)cc1", "system": "aqueous HEPES buffer", "conditions": "pH 7.4, together with: quinine bisulfate reference", "endpoint": "fluorescence quantum yield", "result": 0.05}
{"SMILES": "CCCC[C@H](NC(C)=O)C(=O)N[C@H]1CC(=O)NCCCC[C@@H](C(=O)N[C@@H](C(=O)N2CCC[C@@H]2C(N)=O)C(C)C)NC(=O)[C@H](Cc2c[nH]c3ccccc23)NC(=O)[C@H](CCCN=C(N)N)NC(=O)[C@@H](Cc2ccc3ccccc3c2)NC(=O)[C@@H]2CCCN2C1=O", "system": "healthy dogs, plasma", "conditions": "subcutaneous, 2.25 mg/kg per day, day 5, 1 h post-dose, median", "endpoint": "plasma histamine", "result": "14.4 ng/mL"}
{"SMILES": "COCCOCCOCCOCCC(=O)NCc1cc(CNC(=O)CCOCCOCCOCCOC)cc(-c2cc3cc4nc(c(-c5ccc(CCC(=O)O)cc5)c5[nH]c(cc6nc(c(OC)c2[nH]3)CC6(C)C)cc5-c2cc(CNC(=O)CCOCCOCCOCCOC)cc(CNC(=O)CCOCCOCCOCCOC)c2)CC4(C)C)c1", "system": "DMF", "conditions": "room temperature", "endpoint": "Qy emission maximum", "result": "731 nm"}
{"SMILES": "[11CH3]c1ccc2nc(C3CCC3)n(-c3ccc4[nH]ncc4c3)c2n1", "system": "standard human adult, ovaries", "endpoint": "absorbed radiation dose", "result": "3.8 µSv/MBq"}
{"SMILES": "COC(=O)C(c1ccccc1Cl)N1CCC2SC(=O)C=C2C1 (stereo not drawn)", "test": "LC-MS/MS", "system": "human plasma extract", "conditions": "2 ng/mL spiked, 8 h, room temperature", "endpoint": "measured concentration", "result": "2.1 ± 0.2 ng/mL"}
{"SMILES": "COc1ccc(-c2ccn(CC[C@](C)(C(=O)NO)S(C)(=O)=O)c(=O)c2)c(F)c1", "system": "CF-1 mouse, female", "conditions": "subcutaneous, 300 mg/kg", "endpoint": "Vss", "result": "2.53 ± 0.39 L/kg"}
{"SMILES": "CCOc1c(C(C)(C)O)sc2cnc(Nc3ccc(N4CCC(N5CC6(COC6)C5)CC4)cc3OC)nc12", "system": "New Zealand rabbit, male, isolated Purkinje fibres", "conditions": "30 µM, 45 min, pacing 1 Hz", "endpoint": "APD90 change", "result": "-4 ± 2%"}
{"SMILES": "C=CC(=O)Nc1cc(Nc2nccc(-c3cn(C4CC4)c4ccccc34)n2)c(OC)cc1N(C)CCNC", "test": "radio-HPLC, co-eluting peaks pooled", "system": "human male, urine", "conditions": "oral, 110 mg, 0 to 96 h, sample holds 4.16% dose", "how to read": "relative to: sample radioactivity", "endpoint": "share of radioactivity", "result": "28.8%"}
{"SMILES": "C[C@H](CN(C)Cc1ccccc1)NC(=O)c1ccc(-c2noc(C(F)(F)[18F])n2)cc1", "test": "microPET", "system": "mouse", "conditions": "60 min after injection", "endpoint": "brain uptake", "result": "2.86 ± 0.19 %ID/cc"}
{"SMILES": "O=C(CCc1ccc(CNC(C(=O)O)C2CCCCC2)cn1)NO (stereo not drawn)", "system": "human, plasma", "conditions": "oral, 40 mg once daily, day 7, geometric mean", "endpoint": "AUC(0-t)", "result": "316 ng·h/mL"}
{"SMILES": "C=CC(=O)Nc1cc(Nc2nccc(-c3cn(C4CC4)c4ccccc34)n2)c(OC)cc1NC", "test": "radio-HPLC", "system": "human male, urine", "conditions": "oral, 110 mg, 0 to 96 h, sample holds 4.16% dose", "how to read": "relative to: sample radioactivity", "endpoint": "share of radioactivity", "result": "1.7%"}
{"SMILES": "CC[C@H](C)[C@H](NC(=O)[C@H](N)Cc1ccc(O)cc1)C(=O)N[C@H]1CSSC[C@@H](C(=O)N(C)[C@H](C(N)=O)[C@@H](C)CC)NC(=O)[C@H](CCCNC(=N)N)NC(=O)[C@H](Cc2c[nH]cn2)NC(=O)[C@H](C)NC(=O)CN(C)C(=O)[C@H](Cc2c[nH]c3ccccc23)NC(=O)[C@H](CC(=O)O)NC(=O)[C@H](CCC(N)=O)NC(=O)[C@H](Cc2cn(C)c3ccccc23)NC(=O)[C@H](C(C)C)NC1=O", "test": "UPLC-ESI-MS", "system": "human plasma", "conditions": "0.36 µg/mL, 48 h, 4 °C, autosampler after SPE", "endpoint": "recovery", "result": "100.5 ± 0.6%"}
{"SMILES": "COC[C@@H](CC(C)C)NC(=O)c1ccc(CO)c(C)c1", "test": "LC-MS", "system": "Sprague-Dawley rats, pooled sexes, plasma", "conditions": "oral, 100 mg/kg of parent drug, 1 h", "how to read": "relative to: total metabolite peak area", "endpoint": "metabolite peak area", "result": "54.1% and 54%"}
{"SMILES": "COc1cc(OC)cc(C2=C3C(C)=C(I)C(C)=[N+]3[B-](F)(F)n3c(/C=C/c4cccs4)c(I)c(C)c32)c1", "system": "DMSO", "endpoint": "Stokes shift", "result": "453 cm⁻¹"}
{"SMILES": "N=C(N)NCCC[C@@H]1NC(=O)[C@H](Cc2c[nH]c3ccccc23)NC(=O)[C@@H](CC2CCCCC2)NC(=O)[C@@H]2CCCN2C(=O)[C@@H](NC(=O)CCc2ccccc2)CCCNC1=O", "system": "C57BL/6J mice, brain", "conditions": "intraperitoneal, 1 mg/kg, two-compartment model", "endpoint": "apparent distributional clearance", "result": "2.71 ng/(min·ng/g)"}
{"SMILES": "CCc1cc(Nc2nc(-c3ccc(-n4cnc(C)c4)c(F)c3)cs2)c(C)cc1C", "system": "human, both sexes, plasma", "conditions": "oral, 200 mg once daily, day 14, multiple dose, geometric mean", "endpoint": "apparent terminal volume (Vz/F)", "result": "552000 mL"}
{"SMILES": "CC12CC(c3ccc(S(C)(=O)=O)cc3)C3=C4CCC(=O)C=C4CCC3C1CCC2(O)C(F)(F)C(F)(F)F (stereo not drawn)", "test": "refers to: unchanged compound", "system": "human, fasted, plasma", "conditions": "oral, 5 mg, median", "endpoint": "tlast", "result": "144 h"}
{"SMILES": "CC1=C(/C=C/C(=O)N2CCN(C(N)=O)CC2)C(C)(C)CCC1", "system": "female mouse, plasma", "conditions": "oral, 40 mg/kg, single dose", "endpoint": "half-life", "result": "1.21 h"}
{"SMILES": "CCCC[C@H](NC(=O)[C@H](CC(C)C)N(C)C(=O)CNC(=O)[C@@H](NC(=O)[C@H](Cc1ccccc1)NC(=O)[C@H](CCCCN)NC(=O)[C@@H](N)CC(=O)O)C(C)C)C(N)=O", "system": "anesthetized Gottingen minipig", "conditions": "subcutaneous, 30 µg/kg", "how to read": "relative to: baseline", "endpoint": "heart rate", "result": "0.14 ± 7.12%"}
{"note": "Some of these lines once more:"}
{"SMILES": "CCCC[C@H](NC(C)=O)C(=O)N[C@H]1CC(=O)NCCCC[C@@H](C(=O)N[C@@H](C(=O)N2CCC[C@@H]2C(N)=O)C(C)C)NC(=O)[C@H](Cc2c[nH]c3ccccc23)NC(=O)[C@H](CCCN=C(N)N)NC(=O)[C@@H](Cc2ccc3ccccc3c2)NC(=O)[C@@H]2CCCN2C1=O", "system": "healthy dogs, plasma", "conditions": "subcutaneous, 2.25 mg/kg per day, day 5, 1 h post-dose, median", "endpoint": "plasma histamine", "result": "14.4 ng/mL"}
{"SMILES": "CC(C)(O)c1ncc([S@](N)(=O)=NC(=O)Nc2c3c(cc4c2CCC4)CCC3)s1", "system": "healthy human volunteers, plasma", "conditions": "oral, 30 mg once daily, day 14, capsule formulation", "endpoint": "dose-normalised AUC(0-tau)", "result": "980 ng·h/mL/mg"}
